Experimental data gathered from unrelated publications.
Parts stem from different laboratories: compare values within a part only. Positions count from the first letter of the parent shown.

Set 1
Target: UDP-N-acetylglucosamine--peptide N-acetylglucosaminyltransferase 110 kDa subunit (OGT, Homo sapiens, UniProt O15294)
Sequence of UniProt O15294 (whole entry, looked up): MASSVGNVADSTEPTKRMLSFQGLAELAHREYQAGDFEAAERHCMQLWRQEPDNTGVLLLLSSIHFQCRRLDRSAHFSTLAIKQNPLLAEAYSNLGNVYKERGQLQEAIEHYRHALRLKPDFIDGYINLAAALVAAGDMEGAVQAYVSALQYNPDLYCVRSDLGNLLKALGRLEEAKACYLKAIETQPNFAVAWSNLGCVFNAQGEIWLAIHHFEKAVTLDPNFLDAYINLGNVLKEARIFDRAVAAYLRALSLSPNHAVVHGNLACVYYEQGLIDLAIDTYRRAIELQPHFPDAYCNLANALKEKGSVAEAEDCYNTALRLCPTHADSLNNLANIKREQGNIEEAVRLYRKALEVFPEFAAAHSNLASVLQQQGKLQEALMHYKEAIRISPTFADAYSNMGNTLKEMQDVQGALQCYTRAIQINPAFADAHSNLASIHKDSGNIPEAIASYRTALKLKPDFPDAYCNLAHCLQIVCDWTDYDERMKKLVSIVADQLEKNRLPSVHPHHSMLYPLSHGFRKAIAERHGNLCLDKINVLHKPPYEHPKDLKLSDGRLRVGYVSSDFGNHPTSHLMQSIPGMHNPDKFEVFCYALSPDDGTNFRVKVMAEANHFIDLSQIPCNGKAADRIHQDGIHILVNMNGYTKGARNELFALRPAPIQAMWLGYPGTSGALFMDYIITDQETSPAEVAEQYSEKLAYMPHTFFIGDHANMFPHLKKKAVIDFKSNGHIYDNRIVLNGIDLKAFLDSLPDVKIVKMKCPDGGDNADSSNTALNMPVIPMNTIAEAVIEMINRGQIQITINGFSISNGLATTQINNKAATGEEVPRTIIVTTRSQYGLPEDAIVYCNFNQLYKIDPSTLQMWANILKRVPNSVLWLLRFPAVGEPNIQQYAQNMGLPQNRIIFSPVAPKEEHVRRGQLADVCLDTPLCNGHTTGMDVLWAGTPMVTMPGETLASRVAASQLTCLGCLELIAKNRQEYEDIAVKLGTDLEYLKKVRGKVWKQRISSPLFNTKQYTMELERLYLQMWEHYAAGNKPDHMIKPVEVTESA
Effect on: binding
Method: phage display NGS
Molecule type: peptide
Baseline: input library
Measurement: minimum log2 enrichment ratio
HMKHMAIAMGGHFHT: 1.94
HTASQPQHTYWHRTQ: 1.3
EIPTVDFHPMYMIKI: 1.44
QMNYIHWWIQKDHK: 1.19
SQPQRSYTPFYQIQA: 3.47
RSFATTSYPPVYQIF: 2.06
HLTHRHSYIKADHSL: 3.01
HVFHHDVVRDYHNMH: 2.52
FMHHQHVESPVHTYI: 1.47
QIHQMRHHAPHTRVP: 2.02
HGRDTYMEKGHYHF: 1.93
HPIHPHRNKFDVMFI: 1.74
QHEFQRILSHHHSYS: 2.19
HIYPRHQHSFEPVK: 3.34
QYTPKYQIKTPFIIS: 3.45
GMRQPPYMPLYQIEV: 4.47
QWPVIGWHTHATYIH: 1.44
NEQQIFPPIYIIQHP: 1.73
HSYHHDTVITHNTHH: 2.92
HLHGHTYMPRHGEVT: 3.76
HYHPNHHGSYSLRN: 2.82
FPHHILQHHRQDDFH: 2.31
RFNADHHYHDHHIVA: 2.29
NIMPAYQIMYPANFR: 4.65
HLPSHYEAKPTKHHR: 3.23

Set 2
Target: CCNB2, cyclin fold, Cln2 fusion (human)
Method: yeast growth competition, sequencing
Matrix: yeast
Notes: strong parent motif
Baseline: not given
Direction: higher = stronger binding
Measurement: normalised enrichment score
Starting sequence: viral docking peptide; YKVKRRLVFGADD
YKVKRRLVFFADD [G10F]: 0.879
YKVKRRLVFGARD [D12R]: 0.477
YKVKRRLVFGAFD [D12F]: 1.39
YKVKRRLKFGADD [V8K]: 1.46
YKVKLRLVFGADD [R5L]: 0.0544
YKVKRRLPFGADD [V8P]: 0.611
YKTKRRLVFGADD [V3T]: 0.944
YKVKRSLVFGADD [R6S]: 0.348
YKVKRRLAFGADD [V8A]: 0.729
YIVKRRLVFGADD [K2I]: 1.38
YKVKRRHVFGADD [L7H]: 0.192

Set 3
Target: vanadate, free oxyanion
Method: microfluidic competitive inhibition
Matrix: in vitro, cell-free expressed
Concentration: not given
Notes: derived from inhibition constants, unchanged parent 676 nM
Direction: lower = stronger binding
Measurement: oxyanion analog dissociation constant
Starting sequence: PafA, mature enzyme, eGFP fusion (Elizabethkingia meningoseptica, UniProt Q9KJX5); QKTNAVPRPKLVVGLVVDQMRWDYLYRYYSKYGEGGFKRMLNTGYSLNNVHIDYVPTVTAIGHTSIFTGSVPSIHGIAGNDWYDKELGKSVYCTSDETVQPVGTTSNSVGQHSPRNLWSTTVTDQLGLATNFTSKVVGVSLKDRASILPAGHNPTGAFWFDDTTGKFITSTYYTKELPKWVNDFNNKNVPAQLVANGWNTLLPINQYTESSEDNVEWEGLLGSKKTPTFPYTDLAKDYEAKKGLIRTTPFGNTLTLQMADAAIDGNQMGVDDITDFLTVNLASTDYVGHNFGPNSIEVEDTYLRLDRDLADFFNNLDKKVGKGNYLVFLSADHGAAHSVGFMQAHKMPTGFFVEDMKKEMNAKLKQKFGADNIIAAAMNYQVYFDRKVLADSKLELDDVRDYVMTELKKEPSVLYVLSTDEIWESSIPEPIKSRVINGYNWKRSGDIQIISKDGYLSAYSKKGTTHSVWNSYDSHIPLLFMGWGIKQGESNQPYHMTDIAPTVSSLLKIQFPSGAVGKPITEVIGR
D143G: 3.8 µM
S460G: 710 nM
A515G: 774 nM
D260G: 610 nM
I74G: 860 nM
V503G: 2.73 µM
V137A: 561 nM
G14A: 979 nM
T278G: 945 nM

Set 4
Target: RNA binding protein fox-1 homolog 2, RRM domain, GST-SBP tag (RBFOX2, Homo sapiens, UniProt O43251-10, residues 100-194)
Method: RNA Bind-n-Seq
Molecule type: RNA
Matrix: in vitro
Concentration: 365 nM
Notes: natural RNA segment, single round, ends assumed
Baseline: no-protein control
Direction: higher = stronger binding
Measurement: RBNS enrichment (R)
Constant ends, left off below: GGGAGUUCUACAGUCCGACGAUC … UGGAAUUCUCGGGUGCCAA
Construct (chain): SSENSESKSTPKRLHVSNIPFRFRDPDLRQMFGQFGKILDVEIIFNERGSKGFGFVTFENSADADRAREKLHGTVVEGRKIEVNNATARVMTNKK
UAUAAAUCAGUUAUGUAGUAUCUUUUGUUUUUGUAGCUGAUUCCUUAACUUUCUUGUAUGCCUCUAGUAAUUUCAGAGAUUAAAUAUUGCUUUAAACUGUGAUACUUUGA: 0.43
AUCAGAGGCAGGCUUGUCUUUGUAGAGAAUUACAAGCCUGCUUGAGCUACAGAGUGUGAUCCUGUCAAAAUCCCCUGAGAAAUAUUCUUAGGGGCUCACAACCAAGGUCC: 0.272
GCUGUAACAAAGCUAAGAACAGCACUUGACUAGUUUGGGCCCAAUCCCUGAUCUGAGUUGAUUUGUUUGACUGUCUUUGGGGCAAACCUUAGCAGCUCAGUAGAUUCUUC: 0.897
UUCUUUUGUCCAUGCUCUCAUUGCUGAUUUGUUCUUGCAGGACUUAGAGCACUUUGUUAAUGUUCUUCCAUUCACUCCAACAGCGUCCUCAGAAAGAGACAGAAUAAAAA: 0.83
CUGGGAGGGUCACCAGGUCCCUUUUCCUUCCUGUGCCCUCUGAAAGCUAAGUGUCUGUGUGGCUGUGGAGCUCGAGGGUCUGUGAAUAAAGGCGGCGGCACUGGGCGUGG: 1.41
UAUACAUAUAUACGUACAUAUGCUGUCCAAAUAUAUUUGUAUAUAUUUGUAUAGCAUUUUUACACCUUUAUUGAGUAAUCUGGUUUCGAAAGGAGGUGAGAGUUUAGUCC: 0.409
GAAACACCUGCCACUCUAGAUAGUUAGUGUGAGGGAUCCAGGCUUGUGUGAGGGGAAUAAUGUGGAAAGCUGAGGUCUAAUUGUGGUGACGUUAGCUGUCCCAGGCCACA: 0.757
CCCUCAAAUGAGAAGGCCUUGGGAGAAGGCCUCAUCUCUGGCUGUUUCAUGAGCAACUCAUUCCUAGAGUUCAUUGUUUGCAUGGGUUUCUCACAAGCGUCCUUCCUCAU: 0.77

Some of these lines once more (set 2):
YKVKRRLVFFADD [G10F]: 0.879
YKVKRRLVFGAFD [D12F]: 1.39
YIVKRRLVFGADD [K2I]: 1.38
YKVKRRLAFGADD [V8A]: 0.729
YKVKRRLPFGADD [V8P]: 0.611
YKVKRRHVFGADD [L7H]: 0.192
YKVKRRLKFGADD [V8K]: 1.46
